Measured values pooled from the literature.
Compare with care: the assays were run in different laboratories.
Target: Phosphatidylinositol 4,5-bisphosphate 3-kinase catalytic subunit gamma isoform (PIK3CG, Homo sapiens, UniProt P48736)
Chain of UniProt P48736 (whole entry, looked up): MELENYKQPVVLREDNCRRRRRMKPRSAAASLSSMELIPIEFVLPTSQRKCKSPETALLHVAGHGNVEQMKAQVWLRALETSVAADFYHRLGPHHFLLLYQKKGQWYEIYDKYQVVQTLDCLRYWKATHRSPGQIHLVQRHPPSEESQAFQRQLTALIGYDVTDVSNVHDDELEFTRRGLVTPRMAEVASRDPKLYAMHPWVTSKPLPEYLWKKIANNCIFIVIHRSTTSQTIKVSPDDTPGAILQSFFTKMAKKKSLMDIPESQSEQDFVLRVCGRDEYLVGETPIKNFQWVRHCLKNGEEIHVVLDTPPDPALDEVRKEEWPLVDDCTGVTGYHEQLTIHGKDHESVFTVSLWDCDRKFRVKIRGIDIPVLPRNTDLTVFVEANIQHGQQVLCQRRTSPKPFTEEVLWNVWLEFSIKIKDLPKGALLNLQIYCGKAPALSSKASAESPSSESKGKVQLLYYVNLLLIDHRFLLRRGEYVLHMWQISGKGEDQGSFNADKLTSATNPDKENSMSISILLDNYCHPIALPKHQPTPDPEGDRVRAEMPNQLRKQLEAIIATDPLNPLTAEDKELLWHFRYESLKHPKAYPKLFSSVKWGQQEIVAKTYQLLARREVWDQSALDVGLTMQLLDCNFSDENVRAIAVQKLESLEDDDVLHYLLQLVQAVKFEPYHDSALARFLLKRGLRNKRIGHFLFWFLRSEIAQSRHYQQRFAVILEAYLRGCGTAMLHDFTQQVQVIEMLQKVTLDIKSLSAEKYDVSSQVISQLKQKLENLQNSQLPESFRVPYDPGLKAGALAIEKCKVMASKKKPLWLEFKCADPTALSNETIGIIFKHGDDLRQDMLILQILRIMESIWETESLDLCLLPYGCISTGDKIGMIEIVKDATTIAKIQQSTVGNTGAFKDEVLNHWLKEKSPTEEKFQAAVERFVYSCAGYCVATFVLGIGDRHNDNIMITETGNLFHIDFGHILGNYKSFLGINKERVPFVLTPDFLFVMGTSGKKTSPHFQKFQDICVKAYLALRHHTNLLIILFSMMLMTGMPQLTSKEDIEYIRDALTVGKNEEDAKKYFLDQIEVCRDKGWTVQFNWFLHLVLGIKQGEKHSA

The IC50 of `O=C1/C(=N\c2cccc(Cl)c2)c2ccccc2N1Cc1ccccc1` is reported as 6.02 nM (enzyme activity, inhibitor, ADP detection).
The IC50 of `COc1ccccc1/C=C1\C(=O)N(C)c2ccc(Nc3nc(C)nc4ccccc34)cc21` is reported as 376 nM (enzyme activity, inhibitor, ADP detection).
The IC50 of `CCN(CC)CC(=O)Nc1cccc(-n2cc(-c3ccc4ccc(-c5cn(-c6cccc(NC(=O)CN(CC)CC)c6)nn5)cc4c3)nn2)c1` is reported as over 10000 nM (enzyme activity, inhibitor).
The IC50 of `Cc1nc(Nc2ccc3c(c2)/C(=C/c2c[nH]c4ccccc24)C(=O)N3)c2ccccc2n1` is reported as 98.3 nM (enzyme activity, inhibitor, ADP detection).
`CN1C(=O)/C(=N\c2ccc(Cl)cc2Br)c2ccccc21` has an IC50 of 4.5 nM (enzyme activity, inhibitor, ADP detection).
For `CC(=O)N1c2ccc(-c3ccc(CNC(=O)c4cn5cc(-c6cnc(N)nc6)nc(N6CCOCC6)c5n4)cc3)cc2CC[C@@H]1C`, the IC50 was 937 nM (enzyme activity, inhibitor).
The IC50 of `CCc1ccc(/N=C2\C(=O)N(Cc3ccc([N+](=O)[O-])cc3)c3ccccc32)cc1` is reported as 7.49 nM (enzyme activity, inhibitor, ADP detection).
For `Cc1nc(N(C)c2ccc3c(c2)/C(=C/c2ccccc2C)C(=O)N3C)c2ccccc2n1`, the IC50 was 75.7 nM (enzyme activity, inhibitor, ADP detection).
`Cc1nn(-c2cccc(N)c2)c(=O)c2cnc(Nc3ccc(N4CCNCC4)cc3)nc12` has an IC50 of over 10000 nM (enzyme activity, inhibitor).
`O=C1Nc2c(Br)cccc2/C1=C1/Nc2ccccc2C1=NO` has an IC50 of over 9100 nM.

Repeated from above:
The IC50 of `O=C1/C(=N\c2cccc(Cl)c2)c2ccccc2N1Cc1ccccc1` is reported as 6.02 nM (enzyme activity, inhibitor, ADP detection).
